Measurements pooled from the literature.
Every numbered part comes from another study and shows a few of its results, in no order.

Series 1 — technique: RNA Bind-n-Seq; form: RNA; matrix: in vitro; concentration: 365 nM; relative to: no-protein control; direction: higher = stronger binding; quantity: RBNS enrichment (R)
Target: RNA binding protein fox-1 homolog 2, RRM domain, GST-SBP tag (RBFOX2, Homo sapiens, UniProt O43251-10, residues 100-194)
Notes: natural RNA segment, single round, ends assumed
Construct (chain): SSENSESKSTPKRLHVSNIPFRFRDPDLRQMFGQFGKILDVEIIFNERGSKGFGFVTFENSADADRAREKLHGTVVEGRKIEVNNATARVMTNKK
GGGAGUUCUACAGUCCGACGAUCCAAUCCUCCCAAUAUGCUGGGAUUACAGGCAUGAGCCACCACCUGGCCCAAGCAAGAAAUUGACACUAUAUAGUUAUUUAAGGUAGUCAGGCAGUAGAAACAUUGCCAGAUGGAAUUCUCGGGUGCCAA: 0.368
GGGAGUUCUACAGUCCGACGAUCCAUUAACUUCUCUGGAAAGGGGGGAGCUGGGGAAACUCAAACUUUUCCCCUGUCCUGAUGGUCAGCUCCCUUCUCUGUAGGGAACUCUGGGGUCCCCCAUCCCCAUCCUCUGGAAUUCUCGGGUGCCAA: 0.322
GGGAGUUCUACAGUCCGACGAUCGUGACCUGAAUGUGCUCACACCCACUGGCUUCUAGAGCCCUCUUUCCAGGGAUUCUGGUAAAGGUGGUUUCUUGCAUCCCACUCCCCUUUUACCUUGGCUUUGACAUAGGUGGAAUUCUCGGGUGCCAA: 0.808
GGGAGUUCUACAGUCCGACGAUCGUUAGUACCUCUAGAAAUCAUGUGUCCUAGGAAUGGCAAGGAUGGAAAGAAAGUUGAAGACUGUUCUCUGGCUUCUCCUACCUAGGUACAGCAGACUGUAGUACCUCACAUGGAAUUCUCGGGUGCCAA: 0.509
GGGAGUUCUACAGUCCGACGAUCUUAUUUUACCAGCUAUUUAUUGAGUGUCUUUUAUGUAGGCUAAAUGAACAUAGGUCUCUGGCCUCACGGAGCUCCCAGUCCUAAUCACAUUCAAGGUCACCAGGUACAGUUGGAAUUCUCGGGUGCCAA: 0.663
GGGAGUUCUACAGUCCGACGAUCGUAACCAGUUUGCUAUGCUGCAUCUAACCAGACACACCUGACUUAGUAGUAACUCUAAGAACCCUUAACUUACAAACAACUUUGUCUCCUCUUAGACAAUAUUCAUUAAAUGGAAUUCUCGGGUGCCAA: 0.965
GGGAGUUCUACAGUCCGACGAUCAAGAUUAUAUUUGAGGAUUGUAGCAGUUUCUUUGUUUCAGAUUGUCAGCUGACUUAAAAUGUUUGUGACUUUCCUGUAAGGGCAGCCAGGGAUAAAAGUAUCCUUUGUUCUGGAAUUCUCGGGUGCCAA: 0.254
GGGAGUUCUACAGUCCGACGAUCAAGUAUCAAAAACCAGGUUAGGAGGUGUGCUGUAUGGCUUUUAUCUCAAUAAGUGGCAGCUUACUGGGGAAAAAGAAAUAAGAAAAAGUGUGGCCAAGCAGAAGUGGAUGUGGAAUUCUCGGGUGCCAA: 1.24
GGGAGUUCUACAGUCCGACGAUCCUUCAGCAUGGAGAGGACACCGUGCCCCAGGGGCCUGAGUCUCAGGCAGAGUCCAUCCCAAUAAUAGUAACUCCUGCUCCUGAAAGCAUCCUACAUUCUGACCUUCAAAGUGGAAUUCUCGGGUGCCAA: 0.886
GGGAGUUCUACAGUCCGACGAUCUACGUCCUGCCUACAACUCCCGAGUGGCUUUUGGUAGUAACUACCCUGUGUACCCAUUAACAAAGCCAACUAUGUCCUCUCUCCAGAAUGCCCACCCCUACUGUGGCCACUGGAAUUCUCGGGUGCCAA: 0.296
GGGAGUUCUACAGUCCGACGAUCCUAACUGGAAGAGGAAACGCUGGGGCUGCAGUGAGGGCUCCAAGCUUCUCAGUGCCAACCACGCCCUGCCAGCCCCUCCUCCCAUUCUCUUCCCCAGCCUGCCCUCUGCCUGGAAUUCUCGGGUGCCAA: 0.289
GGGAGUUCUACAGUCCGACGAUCCUUUGAAGAUUUCUCAGAAAACUCAGAAGAAACGCCCUCUUUCAGGAUAAAUGUGGUGUUCCUAGCAGGCUGCUUGUUGAAAUUCCAGUGUUUUAAAAAUAUUUUUGUUGUGGAAUUCUCGGGUGCCAA: 0.587

Series 2 — technique: protein binding microarray; form: double-stranded DNA, one strand shown; matrix: in vitro; concentration: not given; relative to: not given; direction: higher = stronger binding; quantity: E-score
Target: Histone acetyltransferase KAT6A, winged helix 2, GST fusion (KAT6A, Homo sapiens, UniProt Q92794, residues 85-181)
Notes: 8-mer, flanks averaged, mean of 2 arrays, mostly near background
Construct (chain): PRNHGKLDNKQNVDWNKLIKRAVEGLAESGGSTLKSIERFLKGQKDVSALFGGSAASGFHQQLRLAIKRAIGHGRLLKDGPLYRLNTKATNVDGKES
CCTGATAG: -0.109
CGCCACGA: 0.0732
ATAACTAT: -0.149
TACAGTAA: -0.172
ATCACAAG: -0.0346
CGATAGAG: 0.141
GAGCCGCA: 0.0812
GTTGAGGA: 0.0995
GGACCATA: -0.0797
ACCGCCAA: 0.0614
CTCGACCC: 0.0615
GTAACCGA: 0.0208
CTTCGGTC: 0.141
TCGCTGCA: -0.051
GAAATTTA: -0.0271
CCTCCGCC: 0.179
CGTCACAA: 0.103
AGACATCG: 0.0282
ACGAGACA: 0.0493
CCTGATGA: 0.125

Series 3 — technique: protein-binding microarray; form: double-stranded DNA, one strand shown; matrix: in vitro; concentration: 2200 nM top; notes: 60-bp whole probe; added: salmon DNA 0.4 mg/ml; relative to: random background probes; direction: higher = stronger binding; quantity: fitted relative affinity; shared flanks, not repeated: GCCTAGCAC … GTCTTGATTCGCTTGACGCTGCTG
Target: Interferon regulatory factor 7, full length, phosphomimetic (IRF7, Homo sapiens, UniProt Q92985, residues 1-503, S471D/S472D/S475D/S476D/S477D/S483D/S484D/S487D)
Residues (chain): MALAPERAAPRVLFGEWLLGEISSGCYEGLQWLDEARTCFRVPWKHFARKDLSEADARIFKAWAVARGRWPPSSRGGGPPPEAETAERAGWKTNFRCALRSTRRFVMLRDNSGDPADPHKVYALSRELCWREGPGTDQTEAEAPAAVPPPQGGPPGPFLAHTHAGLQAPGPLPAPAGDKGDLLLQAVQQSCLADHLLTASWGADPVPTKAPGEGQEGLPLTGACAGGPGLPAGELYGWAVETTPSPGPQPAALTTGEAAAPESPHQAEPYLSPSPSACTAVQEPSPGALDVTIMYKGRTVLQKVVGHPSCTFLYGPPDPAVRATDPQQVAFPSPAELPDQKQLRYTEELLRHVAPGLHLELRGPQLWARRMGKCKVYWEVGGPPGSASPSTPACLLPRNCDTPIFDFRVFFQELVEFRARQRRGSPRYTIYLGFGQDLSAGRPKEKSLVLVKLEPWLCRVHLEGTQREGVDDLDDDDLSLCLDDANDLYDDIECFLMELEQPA
AGTATGTTCCTTATTTAAGAGTGCTAG: 0.975 z-score
TTAGGTATCGGGTATCTGTTAGTGCTA: 0.638 z-score
GACGGTATCCTTTGCCTGACGTGCTAG: 0.684 z-score
TTATAACTGAGACTGGATTAGTGCTAG: -0.321 z-score
GACGGACTGCTTCTCCTGTCGTGCTAG: 0.995 z-score
TCATGTTTGAGAAATCAGACTGTGCTA: 0.1 z-score
GACGGTATCCCTCTCCTGACGTGCTAG: 0.785 z-score
GTATGACTCTGCCTCTAACTGTGCTAG: 0.992 z-score
TTAGATATCAGACTGGATTCGTGCTAG: -0.00909 z-score
TTATATTTCGGGTTTCGATTAGTGCTA: 5.99 z-score
CCTCAGCTCCCTTTCTCTCTGTGCTAG: 1.21 z-score
CCTCTTTTTTGTTCCACGCCGTGCTAG: 2.58 z-score
GACGGCATCGGGTATCGGGACGTGCTA: -0.824 z-score
GACCAACTGGGGTATCGAGACGTGCTA: -0.461 z-score
TTAGGTATTCTTATCCTTTAGTGCTAG: 0.536 z-score
GACGAAGTGAGTTTCGAGACGTGCTAG: 2.03 z-score
GACGGACAGCTTATCCTGACGTGCTAG: 0.0655 z-score
TCACATGTGGGTTCCATACTGTGCTAG: 1.17 z-score
TCATTTTTGTATTTTTGACTGTGCTAG: 2.4 z-score
GACGATTTCGAGTTTCGAGACGTGCTA: 4.6 z-score
AATTGTCTCTGTCCCTGTTTGTGCTAG: 2.41 z-score
TCATCTTTCGATGCTAAAACTGTGCTA: 1.98 z-score
TTAGATTTCTGGTTTCGATTAGTGCTA: 5.38 z-score

Series 4 — technique: protein-binding microarray; form: double-stranded DNA, one strand shown; matrix: in vitro; concentration: 0.8 µM; notes: whole 60-bp probe, no competitor; direction: higher = stronger binding; quantity: fluorescence intensity
Target: Centromere-binding protein 1, full length, N-terminal tag (CBF1, Saccharomyces cerevisiae, UniProt P17106, residues 1-351)
UniProt P17106, sequence (whole entry, looked up): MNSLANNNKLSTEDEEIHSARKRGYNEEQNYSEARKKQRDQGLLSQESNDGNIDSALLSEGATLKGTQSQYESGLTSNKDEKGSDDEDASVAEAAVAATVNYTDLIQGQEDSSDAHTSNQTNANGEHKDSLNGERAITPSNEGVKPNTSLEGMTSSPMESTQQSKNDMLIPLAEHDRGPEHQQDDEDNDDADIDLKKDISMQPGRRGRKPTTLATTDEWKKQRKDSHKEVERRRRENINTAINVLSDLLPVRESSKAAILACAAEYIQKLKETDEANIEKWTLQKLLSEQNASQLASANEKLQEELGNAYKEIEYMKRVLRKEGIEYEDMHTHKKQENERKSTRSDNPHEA
GAATTCTATCCTAACCACCACCTCAAAAAAAAATAGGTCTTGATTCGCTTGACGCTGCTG: 623 a.u.
GAAGTGCATTGTGTGATCATGCAGCTACCATAGTAGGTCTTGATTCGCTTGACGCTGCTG: 635 a.u.
GAAGTTGTCGAAAAAAACATCAGGCGTATACCATAGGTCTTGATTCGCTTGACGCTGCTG: 551 a.u.
CCTAACTACTATAGTCAGGTGTAATAGCTTCGTACAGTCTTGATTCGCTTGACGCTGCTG: 845 a.u.
GAATGTGGAGTATCTGATGTAACACTGTAGTCTTAGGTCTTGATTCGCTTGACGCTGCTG: 504 a.u.
CTACTCAAGGTGAGTCACGATGCAGAACTGGAATTCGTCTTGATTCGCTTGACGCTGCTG: 809 a.u.
GAAGTAAAGCACGACCACGTATGGATTAAGGACTAGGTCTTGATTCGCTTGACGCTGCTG: 542 a.u.
GAAGTGCCAAAAACGGACGTCACAAATTACTGCTAGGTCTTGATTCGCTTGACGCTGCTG: 540 a.u.
GAATTACATTGGCGAAAGGTGATGGTGTAAAGTTAGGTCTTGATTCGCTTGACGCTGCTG: 538 a.u.
TGTACGAAGCTATGGCACATGTGTATAGTAGTTAGGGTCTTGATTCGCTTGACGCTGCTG: 878 a.u.
GAACAATATCCAAACCAGCATCAGGAAAAGCCTTAGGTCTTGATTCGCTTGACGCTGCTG: 527 a.u.
GAATAACAGCAAGAAAACGTCACATTTTATGGATAGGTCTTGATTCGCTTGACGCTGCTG: 566 a.u.
GAAGCAAGACACCATCTGATGGGTTGAAAAGAATAGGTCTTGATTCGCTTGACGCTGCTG: 530 a.u.
CTAGGAGATAGTGTAACCGTGACTTCATTTTTCTTCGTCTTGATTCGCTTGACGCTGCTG: 766 a.u.
CTAACAGACATCGATCACATCTATAATAGGAGCTTCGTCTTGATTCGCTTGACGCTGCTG: 536 a.u.
GAAGTAATCATACACGTGAAAAGCACGTGAACATAGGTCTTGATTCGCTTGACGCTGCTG: 13800 a.u.
GAATTTCTTATTGCTTACACCTGATAATCATCCTAGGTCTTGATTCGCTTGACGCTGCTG: 754 a.u.
CTAATTGAACCTAAGAGCGTGATATTTTTACTCTTCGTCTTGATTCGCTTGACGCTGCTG: 633 a.u.
GAAACCTTGGAATGTGTCACGTTGGGCATTTTTTAGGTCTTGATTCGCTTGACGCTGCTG: 1780 a.u.
TGTACGAAGCTATTTCACGGGATTATAGTAGTTAGGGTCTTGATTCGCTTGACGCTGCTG: 594 a.u.
CTAACTTGAAGTTACGATGTGACATAAATTTGTTTCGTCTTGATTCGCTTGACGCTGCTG: 569 a.u.
CTAATGACAATTGTACACGTTGAAACGGAATTATTCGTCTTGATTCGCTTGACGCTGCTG: 539 a.u.
GAAAAAAGCAAATCACATGTGCACATACGTCCATAGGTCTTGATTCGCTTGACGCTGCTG: 4360 a.u.
TGTACGAAGCTATATCACGGGAGTATAGTAGTTAGGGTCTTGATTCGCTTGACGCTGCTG: 889 a.u.
CTAAGAAAAAAGGGCCACGGGATTTTTTTTTCGTTCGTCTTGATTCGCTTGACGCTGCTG: 984 a.u.

Excerpt of the above (series 3):
TCATGTTTGAGAAATCAGACTGTGCTA: 0.1 z-score
CCTCTTTTTTGTTCCACGCCGTGCTAG: 2.58 z-score
GTATGACTCTGCCTCTAACTGTGCTAG: 0.992 z-score
TCATCTTTCGATGCTAAAACTGTGCTA: 1.98 z-score
TCATTTTTGTATTTTTGACTGTGCTAG: 2.4 z-score
GACGATTTCGAGTTTCGAGACGTGCTA: 4.6 z-score
TTATAACTGAGACTGGATTAGTGCTAG: -0.321 z-score
TTAGGTATCGGGTATCTGTTAGTGCTA: 0.638 z-score
GACGGTATCCTTTGCCTGACGTGCTAG: 0.684 z-score
TTATATTTCGGGTTTCGATTAGTGCTA: 5.99 z-score
GACGGACTGCTTCTCCTGTCGTGCTAG: 0.995 z-score
GACGGTATCCCTCTCCTGACGTGCTAG: 0.785 z-score
TTAGATATCAGACTGGATTCGTGCTAG: -0.00909 z-score
